Assay results from different studies.
Lines come from different studies, so protocols differ. Values joined by “and” are separate records of one study, mostly repeats; a detail may differ. ± gives the spread as reported.
rep main protease: Replicase polyprotein 1ab, main protease (rep, Severe acute respiratory syndrome coronavirus 2, UniProt P0DTD1)
Spike glycoprotein: Spike glycoprotein (Severe acute respiratory syndrome coronavirus 2, UniProt P0DTC2)
cya: Calmodulin-sensitive adenylate cyclase (cya, Bacillus anthracis, UniProt P40136)

SMILES	target	assay	system	setting	scale	endpoint	result
O=C1NC(=O)C2(CC(C(=O)NC[C@@H]3CC4(CCC4)CN3C(=O)c3ccn4ccnc4c3)C2)N1 (stereo partly drawn)	rep main protease	enzyme activity, inhibitor	–	5 µM, run 2	–	inhibition	8.4%
C[C@@H]1O[C@@H](O[C@@H]2[C@@H](O)[C@H](OCCc3ccc(O)c(O)c3)O[C@H](CO)[C@H]2OC(=O)/C=C/c2ccc(O)c(O)c2)[C@H](O)[C@H](O)[C@H]1O	Spike glycoprotein	binding, BLI	–	–	–	koff	0.00157 s⁻¹
CC(C)(C(=O)NCC(F)(F)C(F)(F)F)C(=O)N[C@@H]1C(=O)Nc2ccccc2-c2ccccc21	rep main protease	reporter gene (mKate2), inhibitor	–	20 µM	–	inhibition	-0.809%
O=C(N[C@@H](CNC(=O)[C@@H]1CCCc2cn[nH]c21)c1ccc2ccccc2c1)c1cccnc1	rep main protease	enzyme activity, inhibitor	–	5 µM, run 2	–	inhibition	12.5%
Cc1nc(N)c2cnn(CCCNC(=O)c3ccc(S(=O)(=O)F)cc3)c2n1	cya	–	–	–	–	kinact	0.00202 s⁻¹
Cc1ncc(/C=C\C(=O)NC[C@@H]2CC3(CCC3)CN2C(=O)[C@@H]2CC(=O)NC(=O)N2)c(=O)[nH]1	rep main protease	enzyme activity	–	5 µM	–	inhibition	16.2%
C[C@@H]1O[C@@H](O[C@H]2C(=O)c3c(O)cc(O)cc3O[C@@H]2c2ccc(O)c(O)c2)[C@H](O)[C@H](O)[C@H]1O	Spike glycoprotein	binding, BLI	–	–	–	kon	275 M⁻¹ s⁻¹
CC[C@H](C)[C@H](NC(=O)[C@@H]1CCCN1C(=O)[C@H](C)NC(=O)[C@@H]1CSSC[C@@H]2NC(=O)[C@H](CC(=O)O)NC(=O)[C@H](CCCNC(=N)N)NC(=O)[C@H](CCC(=O)O)NC(=O)[C@H](CCCNC(=N)N)NC(=O)CNC(=O)[C@H](CC(=O)O)NC(=O)[C@@H]3CSSC[C@H](NC(=O)[C@H](CCC(=O)O)NC(=O)[C@H](CC(C)C)NC(=O)CNC(=O)[C@H](C)NC(=O)[C@H](CSSC[C@H](NC(=O)[C@H](Cc4ccccc4)NC(=O)[C@@H](N)CO)C(=O)N[C@@H](CC(C)C)C(=O)N[C@@H](C(C)C)C(=O)N[C@@H](CCCCN)C(=O)N[C@@H](Cc4c[nH]c5ccccc45)C(=O)N[C@@H](CCCCN)C(=O)N[C@@H](CCC(N)=O)C(=O)N3)NC2=O)C(=O)N[C@@H](Cc2c[nH]c3ccccc23)C(=O)N[C@@H](CCCCN)C(=O)N[C@@H](CCCNC(=N)N)C(=O)N[C@@H](CO)C(=O)NCC(=O)N[C@@H](CC(N)=O)C(=O)N[C@@H](CCCCN)C(=O)N[C@@H](CO)C(=O)N[C@@H](CO)C(=O)N[C@@H](C(C)C)C(=O)N1)C(=O)N[C@H](C(=O)O)[C@@H](C)O	ASIC1 (Homo sapiens, UniProt P78348)	outside-out patch clamp	HEK-293T ASIC1a knockout	100 nM, pH 6, wild type, 10-90% rise	–	rise time	88 ± 26 ms
O=C(/C=C\c1cnccn1)NC[C@@H](NC(=O)c1cn[nH]c(=O)c1)c1ccc2ccccc2c1	rep main protease	enzyme activity, inhibitor	–	5 µM, run 2	–	inhibition	11.4%
Cc1nc(-c2ccccc2F)c(C(=O)NC(Cc2ccccc2)C(=O)C(N)=O)o1 (stereo not drawn)	rep main protease	reporter gene (Gaussia luciferase), inhibitor	–	20 µM	–	inhibition	0.989%
COc1ccc2nc(NC(=O)CSc3nc4ccccc4c4nnnn34)sc2c1	Replicase polyprotein 1ab, nsp14 N7-methyltransferase (rep, Severe acute respiratory syndrome coronavirus 2, UniProt P0DTD1)	N7-methyltransferase activity, inhibitor, Py-FLINT	–	–	–	Hill slope	1.47 ± 0.15
COc1cc(O)cc2oc(-c3ccc(O)c(O)c3)c(O)c(=O)c12	rep main protease	reporter gene (Gaussia luciferase), inhibitor	–	20 µM	–	inhibition	0.599%
O=C(O)[C@H]1O[C@@H](Oc2cc(O)c3c(=O)cc(-c4ccc(O)c(O)c4)oc3c2)[C@H](O)[C@@H](O)[C@@H]1O	Spike glycoprotein	binding, biolayer interferometry	–	–	–	koff	0.0128 s⁻¹
Cc1nc(N)c2ccn(C3CCN(C(=O)c4ccc(S(=O)(=O)F)cc4)CC3)c2n1	cya	–	–	–	–	kinact	0.00215 s⁻¹
O=C(O)CCc1cc(C(=O)c2ccc(OC3CCCC3)cc2O)ccc1OCc1ccc2c(=O)[nH]oc2c1	rep main protease	viral replication, mKate2 reporter	SARS-CoV-2	20 µM	–	inhibition	-0.934%
COc1ccc(/C=C/c2cc(O)cc(O)c2)cc1O	Spike glycoprotein	binding, BLI	–	–	–	kon	821 M⁻¹ s⁻¹
COc1ccc(C[C@H](NC(=O)[C@H](C)NC(=O)CN2CCOCC2)C(=O)N[C@@H](Cc2ccccc2)C(=O)C2(C)CO2)cc1 (stereo in doubt)	rep main protease	reporter gene (mKate2), inhibitor	–	20 µM	–	inhibition	-1.86%
O=C1CC[C@@H](CCC(=O)N2CCCC[C@@H](C3CN(C(=O)c4cnc5n[nH]nc5c4)C3)C2)CN1	rep main protease	enzyme activity, inhibitor	–	5 µM, run 1	–	inhibition	16.5%
Cc1ccccc1C(=O)N[C@H](C)c1ccc2ccccc2c1	rep main protease	viral replication, Gluc reporter	SARS-CoV-2	20 µM	–	inhibition	1.09%
O=C(OC[C@H]1OC(OC(=O)c2cc(O)c(O)c(O)c2)[C@H](OC(=O)c2cc(O)c(O)c(O)c2)[C@@H](OC(=O)c2cc(O)c(O)c(O)c2)[C@@H]1OC(=O)c1cc(O)c(O)c(O)c1)c1cc(O)c(O)c(O)c1 (stereo partly drawn)	Spike glycoprotein	binding, biolayer interferometry	–	–	–	kon	558 M⁻¹ s⁻¹
O=C(CCc1cncc2ccccc12)N1CCc2cccc(-c3cn(CCO)nn3)c21	rep main protease	enzyme activity, inhibitor	–	5 µM, mean of runs	–	inhibition	21.1%
O=C(/C=C/c1ccc(O)c(O)c1)O[C@H]1[C@H](O)C[C@](O)(C(=O)O)C[C@H]1OC(=O)/C=C/c1ccc(O)c(O)c1	Spike glycoprotein	binding, biolayer interferometry	–	–	–	koff	0.00393 s⁻¹
O=C(NC[C@H](NC(=O)c1cncc2sccc12)c1ccc2ccccc2c1)c1cncs1	rep main protease	enzyme activity, inhibitor	–	5 µM, run 2	–	inhibition	12.5%
CCCN1CCN(c2ccc(C(=O)NC3(C(=O)NCC#N)CCCCC3)cc2)CC1	rep main protease	reporter gene (Gaussia luciferase), inhibitor	–	20 µM	–	inhibition	2.26%
C[C@H](NC(=O)c1[nH]nc2nc[nH]c(=O)c12)[C@@H]1CCN(C(=O)c2cc(-c3ccccc3)ccn2)C1	rep main protease	enzyme activity, inhibitor	–	5 µM, mean of runs	–	inhibition	17%
CC1=C(C(=O)OC2CCCCC2)C(c2ccc([N+](=O)[O-])cc2)C2=C(CC(C)(C)CC2=O)N1 (stereo not drawn)	rep main protease	viral replication, mKate2 reporter	SARS-CoV-2	20 µM	–	inhibition	0.0469%
CCc1c(C(=O)C(N)=O)c2c(OCC(=O)O)cccc2n1Cc1ccccc1	Daboia russelii venom phospholipase A2	enzyme activity, inhibitor	GA population	1 µM, with: NOB substrate	reference: venom alone	remaining activity	72% and 82.7% and 84%

Excerpt of the above:
SMILES	target	assay	system	setting	scale	endpoint	result
COc1cc(O)cc2oc(-c3ccc(O)c(O)c3)c(O)c(=O)c12	rep main protease	reporter gene (Gaussia luciferase), inhibitor	–	20 µM	–	inhibition	0.599%
Cc1ncc(/C=C\C(=O)NC[C@@H]2CC3(CCC3)CN2C(=O)[C@@H]2CC(=O)NC(=O)N2)c(=O)[nH]1	rep main protease	enzyme activity	–	5 µM	–	inhibition	16.2%
